Experimental data of several laboratories.
A part holds a random share of what one study measured. Substitutions count along the parent as printed.

Study 1 — method: protein binding microarray; molecule type: double-stranded DNA, one strand shown; matrix: in vitro; concentration: not given; reference: not given; reading: higher = stronger binding; endpoint: E-score
Target: Histone acetyltransferase KAT6A, both winged helices, GST fusion (KAT6A, Homo sapiens, UniProt Q92794, residues 1-181)
Notes: 8-mer, flanks averaged, mean of 2 arrays, mostly near background
Construct (chain): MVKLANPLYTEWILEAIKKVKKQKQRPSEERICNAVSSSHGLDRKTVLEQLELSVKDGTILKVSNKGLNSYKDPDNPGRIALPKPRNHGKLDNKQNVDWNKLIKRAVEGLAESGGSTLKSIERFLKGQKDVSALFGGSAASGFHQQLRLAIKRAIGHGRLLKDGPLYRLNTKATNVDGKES
AGGGCACA: -0.185
TATCCATA: -0.181
GCTAGTAA: 0.026
ACTCGCCT: 0.068
ACGTGAAT: 0.124
ATACCAAT: -0.146
CGGCTGTC: 0.155
AACCGGAA: 0.202
AAATAAGT: -0.167
AAGCATAA: -0.121
AAGATCCA: -0.175
AGGGCTTA: -0.103
AGGGGCGG: 0.225
ATCATGCA: -0.108
TCCCCTCA: -0.189
CATTGCCC: -0.0656
ACACCGAA: -0.0448
CGGTTTCA: 0.153
CAAGTTCA: -0.106
CGGGCTCC: 0.0982
AACCCCCT: -0.296
AGTGACCA: -0.305

Study 2 — method: protein-binding microarray; molecule type: double-stranded DNA, one strand shown; matrix: in vitro; concentration: 940 nM top; notes: 60-bp whole probe; together with: salmon DNA 0.4 mg/ml; reference: random background probes; reading: higher = stronger binding; endpoint: fitted relative affinity; shared flanks, not repeated: GCCTAGCAC … GTCTTGATTCGCTTGACGCTGCTG
Target: Interferon regulatory factor 5, full length, phosphomimetic (IRF5, Homo sapiens, UniProt Q13568-2, residues 1-514, S451D/S453D/S456D/S462D)
TTAGGTATCGACACCGGGTTAGTGCTA: 5.05 z-score
GACGGTTTCATTATCCTGACGTGCTAG: 5.84 z-score
GACGGTATAGGGTTTCGGGACGTGCTA: 1.67 z-score
ATCTTTTTCCTAATTGAACCGTGCTAG: 0.75 z-score
TCATGTTTCCTCTTTCTACTGTGCTAG: 1.74 z-score
TCATGTAACTCCTATCCAACTGTGCTA: 0.817 z-score
GACGAACTGGGTTTTCGAGACGTGCTA: 0.0803 z-score
CTAGGACTGGGGTTTCGGTTAGTGCTA: 5.77 z-score
GACCGTTCCGGTTTCGGGACGTGCTAG: 5.56 z-score
TTAGGTATACTTCTCCTTTAGTGCTAG: 0.46 z-score
TCAATTGTGGATCTTGCACTGTGCTAG: -0.403 z-score
AAGTTTCTCCTTTCCAAATAGTGCTAG: 4.98 z-score
GACGGTCTCCTTTTTCTGACGTGCTAG: 0.936 z-score
TCACTTTCCTTTATGTCACTGTGCTAG: 2.03 z-score
TTAGGACTGGGTATCGGTGAGTGCTAG: 1.54 z-score
GACGGACTGGGACTGGGGTCGTGCTAG: -0.57 z-score
GACGAACTGAGACTGGAGCCGTGCTAG: -0.243 z-score
TTAGGGATCCTTCTCCTTTAGTGCTAG: -0.273 z-score
TCATTTCCCAGAACTGGAACTGTGCTA: 0.194 z-score

Study 3 — target: CCND1, cyclin fold, Cln2 fusion (human); method: yeast growth competition, sequencing; matrix: yeast; notes: weak parent motif; reference: not given; reading: higher = stronger binding; endpoint: normalised enrichment score
Starting sequence: FZR1 docking peptide (human); QDYERRLLRQIVI; partner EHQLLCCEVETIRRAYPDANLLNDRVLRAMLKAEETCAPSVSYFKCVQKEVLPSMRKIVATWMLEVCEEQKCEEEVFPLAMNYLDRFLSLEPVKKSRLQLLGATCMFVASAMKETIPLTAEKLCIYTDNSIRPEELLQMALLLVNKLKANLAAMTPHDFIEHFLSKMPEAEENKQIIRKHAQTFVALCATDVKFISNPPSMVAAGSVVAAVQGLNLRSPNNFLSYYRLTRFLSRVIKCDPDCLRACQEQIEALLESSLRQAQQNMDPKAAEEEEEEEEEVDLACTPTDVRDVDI
QDYERRLARQIVI [L8A]: -0.281
QDAERRLLRQIVI [Y3A]: 0.0189
QDYERRLLAQIVI [R9A]: -0.403
QDYERRLFRQIVI [L8F]: -0.212
QDYERALLRQIVI [R6A]: 0.0286
QDYERRLLRAIVI [Q10A]: -0.203
QDYERRLLRQAVI [I11A]: 0.237

Mixed results
PhoQ, residues 284 288 289 292 302 303 GLASVI
fold induction (PhoP, residues 12 14 15 18 19 QWHVF (Escherichia coli, UniProt P23836); Sort-seq, measured: YFP reporter; E. coli; PhoQ-PhoP variant library, together with: 10 µM Mg2+; reference: high Mg2+ state, higher = stronger signaling): 5.13

Excerpt of the above (study 2):
AAGTTTCTCCTTTCCAAATAGTGCTAG: 4.98 z-score
TTAGGTATACTTCTCCTTTAGTGCTAG: 0.46 z-score
GACGGTTTCATTATCCTGACGTGCTAG: 5.84 z-score
CTAGGACTGGGGTTTCGGTTAGTGCTA: 5.77 z-score
ATCTTTTTCCTAATTGAACCGTGCTAG: 0.75 z-score
TCATTTCCCAGAACTGGAACTGTGCTA: 0.194 z-score
GACGAACTGGGTTTTCGAGACGTGCTA: 0.0803 z-score
GACGGTATAGGGTTTCGGGACGTGCTA: 1.67 z-score
